# Results gathered from unrelated publications.
# Protocols differ between the studies behind these lines. ± marks the error that the study gave.
# EPHX2: Bifunctional epoxide hydrolase 2 (EPHX2, Homo sapiens, UniProt P34913)
# HDAC8: Histone deacetylase 8 (HDAC8, Homo sapiens, UniProt Q9BY41)
SMILES,target,test,test system,conditions,how to read,measurement,result
CC1(CCCN2CCN(c3ccccn3)CC2)Cc2cc(Cl)ccc2C1=O (stereo not drawn),"HTR1A (Homo sapiens, UniProt P08908)","binding, radioligand binding","HEK293, membranes",added: [3H]8-OH-DPAT,,Hill slope,-0.53 ± 0.03
O=P(O)(O)O[C@@H]1[C@@H](O)[C@H](O)[C@H](O)[C@H](O)[C@H]1OP(=O)(O)O,"Inositol 1,4,5-trisphosphate-gated calcium channel ITPR1, IP3-binding core (Itpr1, Rattus norvegicus, UniProt P29994)","binding, 3H-IP3 competition",,IP3-binding core IBC,,Hill coefficient,0.8 ± 0.1
CC[C@H](C)[C@H](NC(=O)[C@@H]1CCCN1C(=O)CNC(=O)[C@H](CC(N)=O)NC(=O)[C@@H]1CCCN1C(=O)[C@H](CO)NC(=O)[C@H](Cc1ccccc1)NC(=O)[C@H](CC(C)C)NC(=O)[C@H](Cc1ccc(O)cc1)NC(=O)[C@H](CC(N)=O)NC(=O)[C@@H](NC(=O)CN1CCN(CC(=O)O)CCN(CC(=O)O)CCN(CC(=O)O)CC1)[C@@H](C)O)C(=O)N[C@@H](C)C(=O)N[C@@H](CCCNC(=N)N)C(=O)N[C@@H](C)C(=O)N[C@@H](Cc1c[nH]c2ccccc12)C(N)=O,"Ephrin type-B receptor 4, extracellular domain (EPHB4, Homo sapiens, UniProt P54760)",SPR,,"pH 7.4, 25 °C",,koff,0.00256 s⁻¹
C=C(NC(=O)C(=C)NC(=O)c1csc(C2=NC3c4csc(n4)C4NC(=O)c5csc(n5)C(C(C)(O)C(C)O)NC(=O)C5CSC(=N5)C(=CC)NC(=O)C(C(C)O)NC(=O)c5csc(n5)C3(CC2)NC(=O)C(CCC(N)=O)NC(=O)C(=C)NC(=O)C(C)NC(=O)C(C(C)CC)NC2C=Cc3c(C(C)O)cc(nc3C2O)C(=O)OC4C)n1)C(N)=O (stereo not drawn),"PSMB6 (Homo sapiens, UniProt P28072)","caspase-like activity, inhibitor",,"concentration not given, added: Ac-Nle-Pro-Nle-Asp-AMC",relative to: thiostrepton A,fold improvement in inhibition,~2 fold
CN(C)C(=O)C1CCCN(C(=O)c2ccc(NC(=O)NC34CC5CC(C)(CC(C)(C5)C3)C4)cc2)C1 (stereo not drawn),EPHX2,,,,,lipophilic ligand efficiency,6.5
COc1ccc(NC(=O)Cc2ccccc2)c(C)n1,"Cocaine esterase (CES2, Homo sapiens, UniProt O00748)",substrate,,"50 µM, pH 8, 37 °C, enzyme purity 4%",,specific activity,< 1 pmol/min/µg
[3H]C(CNC(=O)c1ccc(-c2ccsc2)cc1)C([3H])CN1CCN(c2ccccc2OCCF)CC1 (stereo not drawn),"DRD3 (Homo sapiens, UniProt P35462)","radioligand, saturation binding",HEK293 membranes,"30 min, 37 °C, no NaCl",,Bmax,2700 fmol/mg protein
O=C([O-])CN(CCN(CC(=O)[O-])Cc1cc(CCC(=O)NCCCCCC(=O)NCCCC[C@H](NC(=O)N[C@@H](CCC(=O)O)C(=O)O)C(=O)O)ccc1O)Cc1cc(CCC(=O)O)ccc1[O-].[68Ga+3],"FOLH1 (Homo sapiens, UniProt Q04609)",PET/CT,"prostate cancer patients, primary prostate lesions","mean, lesion SUVmax",relative to: gluteal muscle SUVmean,tumour-to-background ratio,47.5
CC(C)CCSc1nc2c([nH]1)c(=S)n(C)c(=O)n2C,"Nr3c1 (Rattus norvegicus, UniProt P06536)","reporter gene, antagonist, MMTV-luciferase",T47D/A1-2,"10 µM, 24 h, added: 5 nM dexamethasone",relative to: maximal activity,remaining activity,89%
N#CCCN1CCN(C(=S)c2ccc(-c3cc(Cl)ccc3Cl)o2)CC1,"NPR2 (Homo sapiens, UniProt P20594)","cGMP production, activator",HEK293 expressing GC-B,added: CNP at EC20,relative to: saturating CNP,Emax,112%
CCCC(CC)Sc1nc2c([nH]1)c(=S)n(C)c(=O)n2C (stereo not drawn),"PGR (Homo sapiens, UniProt P06401)","reporter gene, antagonist, MMTV-luciferase",T47D/A1-2,"10 µM, 24 h, added: 5 nM progesterone",relative to: maximal activity,remaining activity,51%
CSCC[C@H](NC(=O)[C@H](CO)NC(=O)[C@@H](NC(=O)[C@H](CCC(N)=O)NC(=O)[C@@H](CCCNC(=N)N)NC(=O)[C@@H](CCCNC(=N)N)NC(=O)[C@@H](CCCCN)NC(=O)[C@@H](CCCNC(=N)N)NC(C)=O)[C@@H](C)O)C(=O)N[C@H](C(=O)N[C@@H](CC(=O)O)C(=O)N[C@@H](Cc1ccccc1)C(=O)N[C@@H](Cc1ccc(O)cc1)C(=O)N[C@@H](Cc1c[nH]cn1)C(=O)N[C@@H](CO)C(=O)N[C@H](CCCCN)C(=O)N[C@H](CCCNC(=N)N)C(=O)N[C@H](CCCNC(=N)N)C(N)=O)[C@@H](C)O,"PCNA (Homo sapiens, UniProt P12004)",isothermal titration calorimetry,,"concentration not given, pH 7.4, 25 °C, 300 mM NaCl, added: p21 peptide",,binding stoichiometry,0.78 ± 0.02
O=C(NC[C@@H](Cc1ccc(F)cc1)N1CCC(O)(C(F)(F)F)CC1)C1(c2ccc(Cl)cc2)CCCC1,"TRPA1 (Homo sapiens, UniProt O75762, I946M)","calcium influx, agonist",,"concentration not given, I946M mutant",,activation,inhibited
COc1ccc(CN(CCCCCCC(=O)NO)Cc2ccc(OC)c(OC)c2)cc1OC,HDAC8,inhibitor,,,relative to: IC50 HDAC8 over HDAC1,selectivity ratio,7.8
CNC(=O)c1cccc([C@@H]2C[C@H]2NC2CCC2)c1 (racemic),"Lysine-specific histone demethylase 1A, with CoREST (KDM1A, Homo sapiens, UniProt O60341)","inhibitor, LC-MS",,,relative to: total FAD species,relative N-formyl-FAD adduct,2%
NC(=O)C1CCCCNC(=O)C(CCCNC(=O)c2cnccn2)NC(=O)C(Cc2ccco2)NC(=O)C(CC2CC2)NC(=O)C=CC(=O)N1 (stereo not drawn),"MAP2K6 (Homo sapiens, UniProt P52564)",DNA-templated library selection,,one selection round,,enrichment factor,1
CCCCCCCCNP(=O)(NCCCCCCCC)O[C@@H]1O[C@H](CO)[C@@H](O)[C@H](O)[C@H]1F,"GBA1 (Homo sapiens, UniProt P04062)","enzyme activity, irreversible inhibitor",,"pH 5.5, 37 °C, added: 2,4-dinitrophenyl beta-D-glucopyranoside",,kinact/Ki,268 M⁻¹ s⁻¹
CC12CC3CC(C)(C1)CC(NC(=O)Nc1ccc(C(=O)N4CCCC(C(=O)O)C4)cc1)(C3)C2 (stereo not drawn),EPHX2,,,,,lipophilic ligand efficiency,6.22
COc1cc(/C=C/C(=O)OCCCC[P+](c2ccccc2)(c2ccccc2)c2ccccc2)ccc1O,"Catalase (Rattus norvegicus, UniProt P04762)",,rat mitochondria,"10 µM, 15 and 30 min",,catalase activity,increased
O=S1(=O)O[C@@H]2[C@H](CO)[C@@H](O)[C@H](O)[C@@H](O)[C@@H]2O1,"GBA1 (Homo sapiens, UniProt P04062, R534H)","enzyme activity, inhibitor",,pH 5.2,,kinact/KI,0.0722 M⁻¹ s⁻¹
O=C(Nc1ccccc1O)c1ccc(-c2ccc(Cl)cc2Cl)o1,"Heat shock protein 90, N-terminal domain (Plasmodium falciparum, UniProt Q8IC05)","binding, SPR",,,,kon,95300 M⁻¹ s⁻¹
CCc1nc2cc3ccccc3cc2cc1C(=O)N1CCC[C@H]1C(=O)N[C@@H](C/C=C\C[C@H](NC(=O)[C@@H]1CCCN1C(=O)c1cc2cc3ccccc3cc2nc1CC)C(=O)N[C@@H](CCCCN)C(=O)NCCCN)C(=O)N[C@@H](CCCCN)C(=O)NCCCN,CUG-CAG duplex RNA,SPR,,,relative to: compound over E isomer,binding ratio,~4.6 fold
FC(F)(F)c1ccc(/N=c2\oc3ccccc3cc2-c2ccccc2)cc1,"PTGS1 (Ovis aries, UniProt P05979)","enzyme activity, inhibitor",,"from IC50, T 300 K",,binding free energy,-11.1 kcal/mol
CC(/C=C/C(=O)NO)=C\[C@@H](C)C(=O)c1ccc(N(C)C)cc1,HDAC8,ITC,Tris-HCl buffer,"concentration not given, pH 7.5, 25 °C",,binding stoichiometry,0.8 ± 0.1
CC(C)(C)CCN1C[C@@H]2[C@@H](CNC(=O)c3cc(Cl)cc(Cl)c3)[C@@H]2C1.Cl,"CACNA1H (Homo sapiens, UniProt O95180)",whole-cell patch clamp,"HEK-293T, transfected",100 nM,,activation V1/2,-41.7 mV
O=C(Nc1ccc(C(F)(F)F)nc1)N1CCC(Cc2cccc(Oc3ccc(C(F)(F)F)cn3)c2)CC1,"FAAH (Homo sapiens, UniProt O00519)","enzyme activity, inhibitor",,,,kinact,0.000333 s⁻¹
COc1ccc(NS(=O)(=O)c2cccc(/C=C/C(=O)NO)c2)cc1,"HDAC6 (Homo sapiens, UniProt Q9UBN7)","enzyme activity, inhibitor",,,relative to: belinostat IC50 over compound IC50,potency ratio,3.71

# For quick reference, copied from above:
SMILES,target,test,test system,conditions,how to read,measurement,result
O=P(O)(O)O[C@@H]1[C@@H](O)[C@H](O)[C@H](O)[C@H](O)[C@H]1OP(=O)(O)O,"Inositol 1,4,5-trisphosphate-gated calcium channel ITPR1, IP3-binding core (Itpr1, Rattus norvegicus, UniProt P29994)","binding, 3H-IP3 competition",,IP3-binding core IBC,,Hill coefficient,0.8 ± 0.1
CC[C@H](C)[C@H](NC(=O)[C@@H]1CCCN1C(=O)CNC(=O)[C@H](CC(N)=O)NC(=O)[C@@H]1CCCN1C(=O)[C@H](CO)NC(=O)[C@H](Cc1ccccc1)NC(=O)[C@H](CC(C)C)NC(=O)[C@H](Cc1ccc(O)cc1)NC(=O)[C@H](CC(N)=O)NC(=O)[C@@H](NC(=O)CN1CCN(CC(=O)O)CCN(CC(=O)O)CCN(CC(=O)O)CC1)[C@@H](C)O)C(=O)N[C@@H](C)C(=O)N[C@@H](CCCNC(=N)N)C(=O)N[C@@H](C)C(=O)N[C@@H](Cc1c[nH]c2ccccc12)C(N)=O,"Ephrin type-B receptor 4, extracellular domain (EPHB4, Homo sapiens, UniProt P54760)",SPR,,"pH 7.4, 25 °C",,koff,0.00256 s⁻¹
C=C(NC(=O)C(=C)NC(=O)c1csc(C2=NC3c4csc(n4)C4NC(=O)c5csc(n5)C(C(C)(O)C(C)O)NC(=O)C5CSC(=N5)C(=CC)NC(=O)C(C(C)O)NC(=O)c5csc(n5)C3(CC2)NC(=O)C(CCC(N)=O)NC(=O)C(=C)NC(=O)C(C)NC(=O)C(C(C)CC)NC2C=Cc3c(C(C)O)cc(nc3C2O)C(=O)OC4C)n1)C(N)=O (stereo not drawn),"PSMB6 (Homo sapiens, UniProt P28072)","caspase-like activity, inhibitor",,"concentration not given, added: Ac-Nle-Pro-Nle-Asp-AMC",relative to: thiostrepton A,fold improvement in inhibition,~2 fold
